Published values pooled from the literature.
Each numbered part is a random draw from the data of one study; scales do not carry over between parts.

Block 1 — method: universal PBM; molecule type: double-stranded DNA, one strand shown; medium: in vitro; tested at: not given; reading: higher = stronger binding; quantity: E-score
Target: Sal-like protein 4, full length isoform B (SALL4, Homo sapiens, UniProt Q9UJQ4-2, residues 1-616)
Notes: 8-mer, flanks averaged, mean of replicates
Construct (chain): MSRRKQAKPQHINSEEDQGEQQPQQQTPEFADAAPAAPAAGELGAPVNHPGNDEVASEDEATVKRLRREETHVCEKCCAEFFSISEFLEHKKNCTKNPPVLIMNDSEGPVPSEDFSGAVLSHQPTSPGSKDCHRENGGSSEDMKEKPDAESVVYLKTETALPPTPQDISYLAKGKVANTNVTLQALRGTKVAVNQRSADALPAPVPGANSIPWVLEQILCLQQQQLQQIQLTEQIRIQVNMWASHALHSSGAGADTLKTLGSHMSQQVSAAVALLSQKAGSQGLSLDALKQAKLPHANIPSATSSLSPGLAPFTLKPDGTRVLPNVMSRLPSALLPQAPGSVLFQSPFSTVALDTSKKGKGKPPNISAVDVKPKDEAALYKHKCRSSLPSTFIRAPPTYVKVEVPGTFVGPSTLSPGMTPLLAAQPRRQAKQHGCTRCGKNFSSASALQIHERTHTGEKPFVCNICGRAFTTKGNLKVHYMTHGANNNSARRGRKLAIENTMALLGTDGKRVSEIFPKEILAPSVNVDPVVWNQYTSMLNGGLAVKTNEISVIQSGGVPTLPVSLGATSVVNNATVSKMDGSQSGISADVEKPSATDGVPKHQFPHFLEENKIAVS
ATCCCGTA: -0.0483
GATGCCCA: 0.0505
AACAATCA: 0.215

Block 2 — method: protein binding microarray; molecule type: double-stranded DNA, one strand shown; medium: in vitro; tested at: not given; baseline: not given; reading: higher = stronger binding; quantity: E-score
Target: Histone acetyltransferase KAT6A, both winged helices, GST fusion (KAT6A, Homo sapiens, UniProt Q92794, residues 1-181)
Notes: 8-mer, flanks averaged, mean of 2 arrays, mostly near background
Construct (chain): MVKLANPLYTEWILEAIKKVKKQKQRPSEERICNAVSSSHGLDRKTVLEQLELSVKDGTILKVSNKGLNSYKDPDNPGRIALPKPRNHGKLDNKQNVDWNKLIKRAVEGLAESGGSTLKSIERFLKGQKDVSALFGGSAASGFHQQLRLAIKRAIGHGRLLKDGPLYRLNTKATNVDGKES
AAGATTAA: -0.134
CAACGTCG: 0.0061
GCCGTCCC: 0.223
AGACGTTA: -0.0717
ACTCTACG: -0.0518
AGCGACGA: -0.0723

Block 3 — method: aptamer microarray, sandwich; molecule type: DNA with 2'F-ANA; medium: in vitro; tested at: 200 nM; added: Cy3 exosite-II aptamer, 400 nM; reading: higher = stronger binding; quantity: mean fluorescence intensity; strand: GGTTGGTGTGGTTGG
Target: Prothrombin, mature alpha-thrombin (F2, Homo sapiens, UniProt P00734)
Notes: whole 15-mer aptamer, many near background
2'F-ANA at 2 5 7 9 10 11 15: 48.3 a.u.
2'F-ANA at 1 3 8 9 10 14 15: 58.4 a.u.
2'F-ANA at 1 3 5 7 8 10 12 15: 51.6 a.u.
2'F-ANA at 2 3 4 7 8 9 11 12 13 14 15: 232 a.u.
2'F-ANA at 1 3 4 7 9 10 11: 61.7 a.u.
2'F-ANA at 1 3 4 8 10 11 12 14 15: 48.5 a.u.

Further values, each from its own experiment
PhoQ, residues 284 288 289 292 302 303 SASVAL  fold induction (PhoP, residues 12 14 15 18 19 YHFSH (Escherichia coli, UniProt P23836); Sort-seq, item: YFP reporter; E. coli; PhoQ-PhoP variant library, added: 10 µM Mg2+; baseline: high Mg2+ state, higher = stronger signaling): 3.87

Repeated from above (block 2):
CAACGTCG: 0.0061
AGACGTTA: -0.0717
